# Measured values gathered from unrelated publications.
SMILES,organism,method,strain,time,notes,with,MIC
CC[C@H]1OC(=O)[C@H](C)[C@@H](O[C@H]2C[C@@](C)(OC)[C@@H](O)[C@H](C)O2)[C@H](C)[C@@H](O[C@@H]2O[C@H](C)C[C@H](N(C)C)[C@H]2O)[C@](C)(O)C[C@@H](C)CN(C)[C@H](C)[C@@H](O)[C@]1(C)O,Enterobacter cloacae,,BNCC 185928,,,,32 µg/mL
N=C(N)c1ccc(OCCCCCOc2ccc(C(=N)N)cc2)cc1,Escherichia coli,,BW25113,,"compound alone, novobiocin checkerboard",,200 µg/mL
Cc1ccc(CCC(=O)Nc2nnc(S(N)(=O)=O)s2)cc1,Bacteroides fragilis,,HM-711,,,,> 784 µM
CC1(C)SC2C(NC(=O)C(NC(=O)C3=C(O)C(Cc4ccc([N+](=O)[O-])cc4)NC3=O)c3ccccc3)C(=O)N2C1C(=O)O (stereo not drawn),Escherichia coli,broth microdilution,BW25113 wild type,18 h,,,50 µg/mL
CC(=O)NC[C@H]1CN(c2ccc(N3CCOCC3)c(F)c2)C(=O)O1,Staphylococcus aureus,broth microdilution,MRSA NRS384 USA300,,,,2 µM
N=C(N)c1ccc(OCc2ccccc2COc2ccc(C(=N)N)cc2)cc1,Escherichia coli,,mcr-2 polymyxin-resistant,20 h,compound alone,,> 200 µg/mL
CC[C@H](C)[C@H](NC(=O)[C@H](CCCCN)NC(=O)[C@H](CCC(=O)O)NC(=O)[C@H](CCCCN)NC(=O)[C@H](CO)NC(=O)[C@H](CCCCN)NC(=O)[C@H](CCCNC(=N)N)NC(=O)[C@H](Cc1ccccc1)NC(=O)[C@H](Cc1ccccc1)NC(=O)[C@H](CC(=O)O)NC(=O)CNC(=O)[C@H](CC(C)C)NC(=O)[C@@H](N)CC(C)C)C(=O)NCC(=O)N[C@@H](CCCCN)C(=O)N[C@@H](CCC(=O)O)C(=O)N[C@@H](Cc1ccccc1)C(=O)N[C@@H](CCCCN)C(=O)N[C@@H](CCCNC(=N)N)C(=O)N[C@H](C(=O)N[C@H](C(=O)N[C@@H](CCC(N)=O)C(=O)N[C@@H](CCCNC(=N)N)C(=O)N[C@H](C(=O)N[C@@H](CCCCN)C(=O)N[C@@H](CC(=O)O)C(=O)N[C@@H](Cc1ccccc1)C(=O)N[C@@H](CC(C)C)C(=O)N[C@@H](CCCNC(=N)N)C(=O)N[C@@H](CC(N)=O)C(=O)N[C@@H](CC(C)C)C(=O)N[C@H](C(=O)N1CCC[C@H]1C(=O)N[C@@H](CCCNC(=N)N)C(=O)N[C@H](C(=O)N[C@@H](CCC(=O)O)C(=O)N[C@@H](CO)C(=O)O)[C@@H](C)O)C(C)C)[C@@H](C)CC)C(C)C)[C@@H](C)CC,Bordetella bronchiseptica,broth microdilution,ATCC 10580,,,,28.5 µM
CN[C@H](CC(C)C)C(=O)N[C@H]1C(=O)N[C@@H](CC(N)=O)C(=O)N[C@H]2C(=O)N[C@H]3C(=O)N[C@H](C(=O)N[C@H](C(=O)O)c4cc(O)cc(O)c4-c4cc3ccc4O)[C@H](O)c3ccc(c(Cl)c3)Oc3cc2cc(c3O[C@@H]2O[C@H](CO)[C@@H](O)[C@H](O)[C@H]2O[C@H]2C[C@](C)(N)[C@H](O)[C@H](C)O2)Oc2ccc(cc2Cl)[C@H]1O,Streptococcus pyogenes,,ATCC 19615,,1 strain,,0.25 µg/mL
Cc1cc(-c2cn[nH]c2-c2cccc(OCc3cccc(C#N)c3)c2)cc(C)n1,Enterobacter cloacae,broth microdilution,ATCC BAA-2468,,,,4 µg/mL
C[C@H]1COc2c(N3CCN(C)CC3)c(F)cc3c(=O)c(C(=O)O)cn1c23,Enterobacter cloacae,agar dilution,ATCC 43560 susceptible,,,,≤ 0.03 µg/mL
Cc1c(CN(C)C(=O)/C=C/c2cnc3c(c2)CC(NC(=O)OC(C)(C)C)C(=O)N3)oc2ccccc12 (stereo not drawn),Enterobacter cloacae,broth microdilution,ATCC 29893,,,,> 32 µg/mL
C[C@@H](O)[C@H]1C(=O)N2C(C(=O)O)=C(S[C@@H]3CN[C@H](C(=O)N(C)C)C3)[C@H](C)[C@H]12,Morganella morganii,broth microdilution,clinical isolate RKI 659/13,,,,≤ 0.5 µg/mL
CC(=O)NC[C@H]1CN(c2ccc(N3CCOCC3)c(F)c2)C(=O)O1,Bacteroides fragilis,,HM-711,,,,< 2.96 µM
CO[C@H]1/C=C/O[C@@]2(C)Oc3c(C)c(O)c4c(c3C2=O)C2=NC3(CCN(CC(C)C)CC3)NC2=C(NC(=O)/C(C)=C\C=C\[C@H](C)[C@H](O)[C@@H](C)[C@@H](O)[C@@H](C)[C@H](OC(C)=O)[C@@H]1C)C4=O,Mycobacteroides abscessus,,ATCC 19977,,single-strain MIC,,2030 µg/mL
N=C(N)c1ccc(OCc2cc(Br)cc(COc3ccc(C(=N)N)cc3)c2)cc1,Escherichia coli,,BW25113,,compound alone,erythromycin checkerboard,> 100 µg/mL
CN[C@H](CC(C)C)C(=O)N[C@H]1C(=O)N[C@@H](CC(N)=O)C(=O)N[C@H]2C(=O)N[C@H]3C(=O)N[C@H](C(=O)N[C@H](C(=O)O)c4cc(O)cc(O)c4-c4cc3ccc4O)[C@H](O)c3ccc(c(Cl)c3)Oc3cc2cc(c3O[C@@H]2O[C@H](CO)[C@@H](O)[C@H](O)[C@H]2O[C@H]2C[C@](C)(N)[C@H](O)[C@H](C)O2)Oc2ccc(cc2Cl)[C@H]1O,Bordetella bronchiseptica,,ATCC 10580,16 h,,,4 µg/mL
CC1(C)S[C@@H]2[C@H](NC(=O)[C@H](N)c3ccccc3)C(=O)N2[C@H]1C(=O)O,Enterobacter cloacae,,BNCC 185928,,,,64 µg/mL
CCCCCCCCCC(=O)N[C@@H](Cc1c[nH]c2ccccc12)C(=O)N[C@H](CC(N)=O)C(=O)N[C@@H](CC(=O)O)C(=O)N[C@@H]1C(=O)NCC(=O)N[C@@H](CCCN)C(=O)N[C@@H](CC(=O)O)C(=O)N[C@H](C)C(=O)N[C@@H](CC(=O)O)C(=O)NCC(=O)N[C@H](CO)C(=O)N[C@@H]([C@H](C)CC(=O)O)C(=O)N[C@@H](CC(=O)c2ccccc2N)C(=O)O[C@@H]1C,Staphylococcus aureus,,SH1000,,,"phosphatidylethanolamine, molar ratio 2",1 µg/mL
N=C(N)c1ccc(OCc2ccc(Br)cc2COc2ccc(C(=N)N)cc2)cc1,Escherichia coli,,552100,,"in combination, checkerboard",rifampicin,6.25 µg/mL
CN(C)[C@@H]1C(O)=C(C(N)=O)C(=O)[C@@]2(O)C(O)=C3C(=O)c4c(O)cccc4[C@@](C)(O)[C@H]3C[C@@H]12,Enterobacter cloacae,,BNCC 185928,,,,2 µg/mL
N=C(N)c1cccc(OCc2ccc(COc3cccc(C(=N)N)c3)cc2)c1,Escherichia coli,,BW25113,,"compound alone, novobiocin checkerboard",,> 200 µg/mL
CC1(C)S[C@@H]2[C@H](NC(=O)[C@H](N)c3ccccc3)C(=O)N2[C@H]1C(=O)O,Bordetella bronchiseptica,,ATCC 10580,16 h,,,32 µg/mL
CO/N=C(\C(=O)N[C@@H]1C(=O)N2C(C(=O)O)=CCS[C@H]12)c1csc(N)n1,Enterobacter cloacae,,BNCC 185928,,,,4 µg/mL
CC1(C)SC2C(NC(=O)C(NC(=O)C3=C(O)CN(c4ccccc4)C3=O)c3ccccc3)C(=O)N2C1C(=O)O (stereo not drawn),Escherichia coli,broth microdilution,ATCC 25922 wild type,,,clavulanic acid 6 µg/mL,12.5 µg/mL

# Excerpt of the above:
SMILES,organism,method,strain,time,notes,with,MIC
N=C(N)c1ccc(OCc2cc(Br)cc(COc3ccc(C(=N)N)cc3)c2)cc1,Escherichia coli,,BW25113,,compound alone,erythromycin checkerboard,> 100 µg/mL
